Measured values collected from several papers.
Numbered parts are unrelated; each lists some results of a single study. Values joined by “and” are separate records of one study, mostly repeats; a detail may differ.
Sequence of UniProt P11388 (whole entry, looked up): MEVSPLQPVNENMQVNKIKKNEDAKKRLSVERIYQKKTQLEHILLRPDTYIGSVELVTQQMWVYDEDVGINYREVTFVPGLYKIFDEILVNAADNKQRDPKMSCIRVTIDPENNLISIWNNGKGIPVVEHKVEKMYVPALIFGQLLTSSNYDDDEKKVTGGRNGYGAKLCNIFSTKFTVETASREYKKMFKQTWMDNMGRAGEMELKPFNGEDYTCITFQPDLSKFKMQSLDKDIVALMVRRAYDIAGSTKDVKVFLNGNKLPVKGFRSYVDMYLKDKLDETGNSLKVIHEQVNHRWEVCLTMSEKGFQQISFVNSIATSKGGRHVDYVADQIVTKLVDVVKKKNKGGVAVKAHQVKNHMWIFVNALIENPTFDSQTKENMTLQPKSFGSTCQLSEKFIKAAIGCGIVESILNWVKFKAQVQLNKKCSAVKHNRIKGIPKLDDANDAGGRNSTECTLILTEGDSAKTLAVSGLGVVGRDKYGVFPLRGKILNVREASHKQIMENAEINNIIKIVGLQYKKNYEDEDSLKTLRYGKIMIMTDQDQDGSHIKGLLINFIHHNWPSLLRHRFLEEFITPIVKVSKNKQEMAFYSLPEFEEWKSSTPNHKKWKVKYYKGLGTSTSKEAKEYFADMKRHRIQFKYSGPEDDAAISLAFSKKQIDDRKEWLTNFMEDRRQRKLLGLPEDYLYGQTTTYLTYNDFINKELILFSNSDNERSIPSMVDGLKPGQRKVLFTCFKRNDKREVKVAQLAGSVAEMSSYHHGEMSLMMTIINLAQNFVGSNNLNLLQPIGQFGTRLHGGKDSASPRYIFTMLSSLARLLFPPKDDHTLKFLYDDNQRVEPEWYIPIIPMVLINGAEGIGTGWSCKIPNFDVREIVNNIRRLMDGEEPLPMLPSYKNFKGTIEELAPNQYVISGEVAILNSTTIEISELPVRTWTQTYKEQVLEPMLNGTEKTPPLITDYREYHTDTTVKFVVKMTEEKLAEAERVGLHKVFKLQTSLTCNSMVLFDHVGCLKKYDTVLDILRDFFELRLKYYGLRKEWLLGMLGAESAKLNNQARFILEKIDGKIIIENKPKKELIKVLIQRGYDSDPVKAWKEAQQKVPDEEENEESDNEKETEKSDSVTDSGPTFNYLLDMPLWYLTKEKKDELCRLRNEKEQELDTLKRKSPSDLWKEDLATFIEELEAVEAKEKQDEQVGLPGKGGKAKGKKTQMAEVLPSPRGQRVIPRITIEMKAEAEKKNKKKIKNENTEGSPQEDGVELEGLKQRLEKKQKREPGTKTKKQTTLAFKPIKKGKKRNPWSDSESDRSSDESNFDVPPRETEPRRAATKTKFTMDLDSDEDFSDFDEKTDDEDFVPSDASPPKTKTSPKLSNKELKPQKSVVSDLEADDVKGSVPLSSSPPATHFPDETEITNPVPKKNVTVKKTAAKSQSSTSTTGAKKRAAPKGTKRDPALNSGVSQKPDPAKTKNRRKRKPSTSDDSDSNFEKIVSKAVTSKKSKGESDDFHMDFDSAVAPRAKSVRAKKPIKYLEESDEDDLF
Sequence of UniProt Q9UQM7 (whole entry, looked up): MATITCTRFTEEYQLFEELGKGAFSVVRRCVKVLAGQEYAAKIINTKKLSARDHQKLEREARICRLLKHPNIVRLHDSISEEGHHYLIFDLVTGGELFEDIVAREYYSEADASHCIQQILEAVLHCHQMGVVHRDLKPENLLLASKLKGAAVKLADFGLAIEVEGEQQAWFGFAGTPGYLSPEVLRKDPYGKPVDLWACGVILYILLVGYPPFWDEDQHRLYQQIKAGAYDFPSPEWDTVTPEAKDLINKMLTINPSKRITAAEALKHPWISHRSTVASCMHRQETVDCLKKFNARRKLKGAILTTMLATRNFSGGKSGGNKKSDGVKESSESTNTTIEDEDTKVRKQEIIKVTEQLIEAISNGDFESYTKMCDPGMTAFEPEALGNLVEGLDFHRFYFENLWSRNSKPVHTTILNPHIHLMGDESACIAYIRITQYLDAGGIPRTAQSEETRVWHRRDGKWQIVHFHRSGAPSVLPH

Block 1
Target: Replicase polyprotein 1ab, polymerase (rep, Severe acute respiratory syndrome coronavirus 2, UniProt P0DTD1)
Observed: enzyme activity
Action: inhibitor
Tested at: 20 µM
SMILES | inhibition [%]
O=P(O)(O)C(O)(Cc1cccnc1)P(=O)(O)O | -5.12
COc1ccc(Cc2cnc(N)nc2N)cc1OC | -6.41
CC(=O)N(OCc1ccccc1)[C@@H]1c2cc(C#N)ccc2OC(C)(C)[C@H]1O | -0.47
CCOC(=O)CSCCC1NC(C(=O)O)CS1 (centres unmarked) | -1.91
CC[C@@]1(O)C(=O)OCc2c1cc1n(c2=O)Cc2cc3c(N)cccc3nc2-1 | 6.33
CCn1c(=O)c(-c2ccc(Cl)cc2Cl)cc2cnc(Nc3ccc(N4CCNCC4)c(F)c3)nc21 | -9.48
CC[C@@H]([C@H](C)O)n1ncn(-c2ccc(N3CCN(c4ccc(OC[C@@H]5CO[C@@](Cn6cncn6)(c6ccc(F)cc6F)C5)cc4)CC3)cc2)c1=O | -2.16
CCOC(=O)Nc1cc2c(c(N)n1)N=C(c1ccccc1)[C@H](C)N2 | 6.09
CC(C)CC(=O)Nc1n[nH]c2c1CN(C(=O)C1CCN(C)CC1)C2(C)C | 0.85
CO/N=C(\C(=O)N[C@@H]1C(=O)N2C(C(=O)O)=C(C)CS[C@H]12)c1csc(N)n1 | -4.76
Nc1ncnc2c1ncn2[C@@H]1O[C@H](C[C@@H](N)CC[C@H](N)C(=O)O)[C@@H](O)[C@H]1O | -2.96
C[C@]12CC[C@@H]3c4ccc(O)cc4CC[C@H]3[C@@H]1[C@@H](O)[C@@H](O)[C@@H]2O | -11.8
CC(C)[N+](C)(CCC(C(N)=O)(c1ccccc1)c1ccccc1)C(C)C | 20.8
COc1ccc(CCN(C)CCc2ccc(OC)c(OC)c2)cc1OC | 2.15
CC(=O)N(CC(O)CO)c1c(I)c(C(=O)NCCO)c(I)c(C(=O)NCC(O)CO)c1I (centres unmarked) | -1.52
CCc1cccc(CC)c1NC(=O)c1nn(C)c2c1CCc1cnc(Nc3ccc(C(=O)NC4CCN(C)CC4)cc3OC(F)(F)F)nc1-2 | 5.78
CN(C(=O)c1ccc(F)cc1C(F)(F)F)C1CCN(c2nnc(-c3ccnn3C)c3ccccc23)CC1 | 4.01
C[C@@H](O)[C@H]1C(=O)N2C(C(=O)O)=C(S[C@@H]3CN[C@H](CNS(N)(=O)=O)C3)[C@H](C)[C@H]12 | 1.35
CCN(CCNC(=O)Nc1ccccc1Br)c1cccc(C)c1 | 19.4
Nc1c2c(nc3ccccc13)CCCC2 | -0.25
CC(C)N(CCCNC(=O)Nc1ccc(C(C)(C)C)cc1)C[C@H]1O[C@@H](n2ccc3c(N)ncnc32)[C@H](O)[C@@H]1O | 1.78
C[C@@H]1NC(=O)[C@@H]2CCCN2C(=O)[C@H](CC(N)=O)NC(=O)[C@@H]2CSSC[C@H](N)C(=O)N[C@H]3CSSC[C@H](NC1=O)C(=O)N[C@@H]([C@@H](C)O)C(=O)NCC(=O)N[C@H](C(=O)N[C@@H](Cc1ccc(O)cc1)C(=O)O)CSSC[C@H](NC(=O)[C@H](Cc1ccc(O)cc1)NC(=O)[C@H](CCC(=O)O)NC3=O)C(=O)N2 | 1.54
COc1cc(OC)c(C=C2C(=O)Nc3ccccc32)c(OC)c1 | 6.67
Clc1ccc(N2CCN(Cc3c[nH]c4ncccc34)CC2)cc1 | -2.18
CCOc1ccccc1OCC1CNCCO1 (centres unmarked) | -0.19

Block 2
Target: Replicase polyprotein 1ab, main protease (rep, Severe acute respiratory syndrome coronavirus 2, UniProt P0DTD1)
Observed: enzyme activity
Action: inhibitor
Tested at: 20 µM
Setting: primary screen
SMILES | inhibition [%]
O=C(Nc1ccc2c(O)cc(S(=O)(=O)O)cc2c1)Nc1ccc2c(O)cc(S(=O)(=O)O)cc2c1 | 68.7
COc1cc2c(cc1OCCCN1CCCC1)N=C(N)C21CCC1 | 35.4
COc1ccc2c(c1)nc([S+]([O-])Cc1ncc(C)c(OC)c1C)[n]2[Mg][n]1c([S+]([O-])Cc2ncc(C)c(OC)c2C)nc2cc(OC)ccc21 (centres unmarked) | 94.7

Block 3
Target: TAR DNA-binding protein 43, full length, His tag (TARDBP, Homo sapiens, UniProt Q13148, residues 1-414)
Technique: RNA Bind-n-Seq
Form: RNA
Matrix: in vitro
Tested at: 20 nM
Setting: 6-mer, flanks averaged, single round
With: 150 mM KCl
Reference: input library
Reading: higher = stronger binding
Sequence | 6-mer enrichment (R)
AUUACU | 0.562
AGCCUU | 0.661
UAUGCC | 0.667
CGUUAG | 0.729
AACUCC | 0.672
GUUUCU | 0.619
GGCAGU | 1.6
AUGAUU | 0.646

Block 4
Cell line: HEK-293T
Observed: pseudovirus infection
Technique: FDA-approved drug library screen
Organism: VSV pseudotyped with SARS-CoV-2 spike
Tested at: 10 µM
Time: 16 h
Reference: vehicle-treated
SMILES | GFP-positive cells [%]
C[C@H](CCC(=O)O)[C@H]1CC[C@H]2[C@@H]3CC[C@@H]4C[C@H](O)CC[C@]4(C)[C@H]3C[C@H](O)[C@]12C | 78.4
CS(=O)(=O)c1ccc(C2=C(c3ccccc3)C(=O)OC2)cc1 | 98.9
Cc1ccc(O)c([C@H](CCN(C(C)C)C(C)C)c2ccccc2)c1 | 30

Block 5
Compound: CC(C)n1cnc(-c2ccc(F)cc2)c1-c1ncc(C(=O)Nc2ccc(N3CCN(C)CC3)cc2)[nH]1
Technique: phase 2a clinical trial
Refers to: injury and poisoning (SOC)
Species: idiopathic pulmonary fibrosis patients
setting | patients with TEAEs [%]
30 mg once daily, grade 4 maximum intensity | 0
30 mg once daily, grade 1 maximum intensity | 0
60 mg once daily, grade 2 maximum intensity | 0
dose not given, grade 4, all drug arms | 0
60 mg once daily, grade 5 maximum intensity | 0

Other studies, line by line
SMILES | target or system | assay | test system | setting | how to read | quantity | result
COC(=O)N(C)c1c(N)nc(-c2nn(Cc3ccccc3F)c3ncccc23)nc1N | CAMK2A (Homo sapiens, UniProt Q9UQM7) | enzyme activity, inhibitor | – | 10 µM | – | inhibition | -11%
COC(=O)Nc1c(N)nc(-c2nn(Cc3ccccc3F)c3ncc(F)cc23)nc1N | – | – | healthy men | oral, 10 mg daily, multiple dose, with: sildenafil 100 mg | reference: with over without sildenafil | Cmax ratio | 0.97
O=C(C1=NN(C2CCS(=O)(=O)C2)C(=O)CC1)N1CCN(C/C=C/c2ccccc2)CC1 (centres unmarked) | – | – | human, microsomes or S9 | 2 µM, 0.5 h | – | remaining compound | 36.6%
COc1cc([C@@H]2c3cc4c(cc3[C@@H](O[C@@H]3O[C@@H]5CO[C@@H](C)O[C@H]5[C@H](O)[C@H]3O)[C@H]3COC(=O)[C@H]23)OCO4)cc(OC)c1O | TOP2A (Homo sapiens, UniProt P11388) | DNA decatenation, inhibitor, gel-based decatenation | – | 100 µM | – | inhibition | 1.3% and 82%
N#CCC1CCN(c2nc(Nc3ccc(N4CCC(O)CC4)cc3)c3c(=O)[nH]ncc3n2)CC1 | – | vs placebo, Olink multiplex | human, serum | 20 mg, day 15, unit not given | reference: placebo | IL-18 level difference | -1.06
COC(=O)Nc1c(N)nc(-c2nn(Cc3ccccc3F)c3ncc(F)cc23)nc1N | – | – | humans, plasma | oral, 10 mg, phase I DDI study, with: rifampicin | – | Cmax | 224 ng/mL

Some of these lines once more (block 1):
SMILES | inhibition [%]
CN(C(=O)c1ccc(F)cc1C(F)(F)F)C1CCN(c2nnc(-c3ccnn3C)c3ccccc23)CC1 | 4.01
C[C@@H](O)[C@H]1C(=O)N2C(C(=O)O)=C(S[C@@H]3CN[C@H](CNS(N)(=O)=O)C3)[C@H](C)[C@H]12 | 1.35
CCN(CCNC(=O)Nc1ccccc1Br)c1cccc(C)c1 | 19.4
Nc1c2c(nc3ccccc13)CCCC2 | -0.25
CC(C)N(CCCNC(=O)Nc1ccc(C(C)(C)C)cc1)C[C@H]1O[C@@H](n2ccc3c(N)ncnc32)[C@H](O)[C@@H]1O | 1.78
C[C@@H]1NC(=O)[C@@H]2CCCN2C(=O)[C@H](CC(N)=O)NC(=O)[C@@H]2CSSC[C@H](N)C(=O)N[C@H]3CSSC[C@H](NC1=O)C(=O)N[C@@H]([C@@H](C)O)C(=O)NCC(=O)N[C@H](C(=O)N[C@@H](Cc1ccc(O)cc1)C(=O)O)CSSC[C@H](NC(=O)[C@H](Cc1ccc(O)cc1)NC(=O)[C@H](CCC(=O)O)NC3=O)C(=O)N2 | 1.54
COc1cc(OC)c(C=C2C(=O)Nc3ccccc32)c(OC)c1 | 6.67
